Assay results from different studies.
Compare with care: the assays were run in different laboratories. Several values in a cell are separate wells, animals, samples, runs or records. pEC50, pIC50: −log10 of the molar value.
HTR2C: 5-hydroxytryptamine receptor 2C (HTR2C, Homo sapiens, UniProt P28335)
PFF0160c: Dihydroorotate dehydrogenase (quinone), mitochondrial (PFF0160c, Plasmodium falciparum, UniProt Q08210)
HLA class I histocompatibility antigen, B alpha chain: HLA class I histocompatibility antigen, B alpha chain (Homo sapiens, UniProt P01889)
BCHE: Cholinesterase (BCHE, Equus caballus, UniProt P81908)
PFF0160c E182D: Dihydroorotate dehydrogenase (quinone), mitochondrial (PFF0160c, Plasmodium falciparum, UniProt Q08210, E182D)
Sialidase-4: Sialidase-4 (Homo sapiens, UniProt Q8WWR8)
Sialidase-3: Sialidase-3 (Homo sapiens, UniProt Q9UQ49)

The pEC50 of COc1cc(CCNC(C)c2ccccc2O)c(OC)cc1Br (stereo not shown) is reported as 8.24 (HTR2C; calcium signal, agonist).
O=C(NC1CC1)c1ccc(N2CCOc3ccc(Cl)cc32)s1 has a pIC50 of 6.49 (PFF0160c; enzyme activity, inhibitor, absorbance).
With [2H]c1c([2H])c([C@]2([2H])CCCN2C(=O)C(C)(C)Oc2ccc3cn[nH]c3c2)c([2H])c([2H])c1C([2H])([2H])[2H] the remaining binding was 71% (CDC42BPB (Homo sapiens, UniProt Q9Y5S2); binding, competition with immobilised ligand; 1 µM).
With Nc1ncc(-c2nc(N3CCOCC3)nc(N3CCOCC3)n2)c(C(F)F)n1 the remaining binding was 92% (TLK1 (Homo sapiens, UniProt Q9UKI8); binding, competition with immobilised ligand; 10 µM).
CC[C@H](C)[C@H](NC(=O)[C@@H](N)CCCNC(=N)N)C(=O)N[C@@H](Cc1ccccc1)C(=O)NCC(=O)N[C@@H](Cc1c[nH]cn1)C(=O)N1CCC[C@H]1C(=O)N[C@@H](Cc1c[nH]cn1)C(=O)N[C@@H](CC(C)C)C(=O)N[C@@H](Cc1ccccc1)C(=O)O gave a pIC50 of 5.92 (HLA class I histocompatibility antigen, B alpha chain; cell-free assay).
C[C@]12CC[C@H]3[C@@H](CC=C4CC(O)CC[C@@]43CO)[C@@H]1CCC2O (stereo partly shown) has a half-life of 18 min (rat, plasma; intraperitoneal, 10 mg/kg).
Cc1c(Cc2ccc(C(F)(F)F)cc2)n[nH]c1C(=O)NC1CC1 gave a pIC50 of 4.05 (PFF0160c; enzyme activity, inhibitor, absorbance).
For Cn1c(=O)cnc2ccc(F)c(CCNC[C@H]3CN(c4cnc5c(n4)NC(=O)CO5)C(=O)O3)c21, the pIC50 was 4.21 (KCNH2 (Homo sapiens, UniProt Q12809); ion current, inhibitor, patch clamp; 2 min, pH 7.4).
The pEC50 of COc1cc(CCNC(C)c2ccccc2O)c(OC)cc1C#N (single isomer, unassigned; (-)) is reported as 7.34 (HTR2C; G protein activation, agonist, BRET).
Cc1nn(C)cc1-c1nc2c(N3CCN(Cc4ccc(Cl)cc4)CC3)c(Cl)cnc2[nH]1 has a remaining binding of 100% (Myosin-IIIb (MYO3B, Homo sapiens, UniProt Q8WXR4); binding, competition with immobilised ligand; 1 µM).
c1ccc2[nH]c(Nc3ccc(Nc4nc5ccccc5[nH]4)cc3)nc2c1 gave a pIC50 of under 5.00 (PFF0160c; enzyme activity, inhibitor, absorbance).
CC[C@H](C)[C@H](NC(C)=O)C(=O)N[C@@H](CCC(=O)O)C(=O)N[C@H](C(=O)N[C@H](C=O)CC(=O)O)[C@@H](C)O gave a pIC50 of 8.79 (Caspase-8 (CASP8, Homo sapiens, UniProt Q14790); enzyme activity, inhibitor).
CC(C)[C@H](NC(=O)[C@H](Cc1c[nH]cn1)NC(=O)[C@@H]1CCCN1C(=O)[C@H](Cc1ccccc1)NC(=O)[C@H](C)NC(=O)[C@@H](N)Cc1c[nH]cn1)C(=O)N[C@H](C(=O)N[C@H](C(=O)N[C@@H](Cc1ccccc1)C(=O)O)[C@@H](C)O)C(C)C has a pIC50 of 6.01 (HLA class I histocompatibility antigen, B alpha chain; cell-free assay).
For Cn1nc2c(=O)n(C3CC3)nc(C3CC3)c2c1Cc1ccc(C(F)(F)F)c(F)c1, the pIC50 was 7.32 (PFF0160c; enzyme activity, inhibitor).
With CCc1ccccc1N=C1c2c(cccc2[N+](=O)[O-])C(=O)C1C(C)=O (stereo not shown) the pIC50 was 6.92 (PFF0160c; enzyme activity, inhibitor, absorbance).
COc1cnc(OC)n2nc(NS(=O)(=O)c3c(OCC(F)F)cccc3C(F)(F)F)nc12 has an inhibition of 0.95% (L02; cell growth or viability, CCK-8; 50 µM, 72 h).
CC(C)C[C@H](NC(=O)[C@H](Cc1ccccc1)NC(=O)[C@H](Cc1ccc(O)cc1)NC(=O)CNC(=O)[C@H](CCCCN)NC(=O)[C@H](CO)NC(=O)[C@H](CCC(N)=O)NC(=O)CNC(=O)[C@@H](NC(=O)[C@H](CO)NC(=O)[C@@H]1CCCN1C(=O)[C@H](CO)NC(=O)[C@H](CCC(N)=O)NC(=O)[C@H](Cc1ccc(O)cc1)NC(=O)[C@H](CCC(=O)O)NC(=O)[C@H](C)NC(=O)[C@H](CCCCN)NC(=O)[C@@H](N)Cc1ccccc1)C(C)C)C(=O)N[C@@H](Cc1ccccc1)C(=O)N[C@@H](CCCNC(=N)N)C(=O)N1CCC[C@H]1C(=O)N[C@@H](CCCNC(=N)N)C(=O)N[C@@H](CC(N)=O)C(N)=O has a pIC50 of 10.40 (NMUR1 (Homo sapiens, UniProt Q9HB89); ligand displacement, radioligand; cell membranes).
CC(C)C[C@H](NC(=O)[C@H](Cc1ccccc1)NC(=O)[C@H](Cc1ccccc1)NC(=O)Cc1ccc(-c2ccccc2)cc1)C(=O)N[C@@H](CCCCN)C(=O)N[C@@H](CCCNC(=N)N)C(=O)N[C@H](C(=O)N[C@@H](Cc1c[nH]c2ccccc12)C(=O)N[C@@H](CCCCN)C(=O)N[C@@H](CCCNC(=N)N)C(=O)O)C(C)C gave a compound remaining of 29.4% (metabolic stability, mass spectrometry; human, liver microsomes; 30 min).
For COC(=O)c1cc(-c2cccc(NC(=S)Nc3ccc(F)c(Cl)c3)c2)on1, the MIC was over 64 µg/mL (Pseudomonas aeruginosa; microbial growth, broth dilution; ATCC27853).
The pIC50 of Oc1c(C(Nc2ccccn2)c2ccco2)cc(Cl)c2cccnc12 (stereo not shown) is reported as 5.06 (PFF0160c; enzyme activity, inhibitor, absorbance).
CCN(CC)c1ccc(C=NNC(=O)c2ccc(F)cc2)c(OS(=O)(=O)c2ccc(OC)cc2)c1 has a pIC50 of 6.95 (CA2 (Homo sapiens, UniProt P00918); enzyme activity, inhibitor, absorbance).
The pIC50 of CCN(C)C(=O)Oc1ccc(CCC(=O)N2CCC(CCCc3ccccc3)CC2)cc1OC is reported as 5.12 (BCHE; enzyme activity, inhibitor, Ellman).
The pIC50 of O=C(Nc1cccc(CN2CCN(C(=O)c3ccccc3)CC2)c1)c1cccs1 is reported as 5.16 (PFF0160c E182D; enzyme activity, inhibitor, absorbance).
The AUC of CC[C@H](C)[C@H](NC(=O)[C@H](Cc1ccccc1)NC(=O)[C@H](CCC(=O)O)NC(=O)[C@H](CCCNC(=N)N)NC(=O)[C@H](C)NC(=O)[C@H](C)NC(=O)[C@H](CCC(N)=O)NC(=O)[C@H](CCC(=O)O)NC(=O)[C@H](CCC(=O)O)NC(=O)[C@H](CC(C)C)NC(=O)[C@H](Cc1ccc(O)cc1)NC(=O)[C@H](CO)NC(=O)[C@H](CO)NC(=O)[C@@H](NC(=O)[C@H](CC(=O)O)NC(=O)[C@H](CO)NC(=O)[C@@H](NC(=O)[C@H](Cc1ccccc1)NC(=O)[C@@H](NC(=O)CNC(=O)[C@H](CCC(=O)O)NC(=O)[C@H](C)NC(=O)CCc1c[nH]cn1)[C@@H](C)O)[C@@H](C)O)C(C)C)C(=O)N[C@@H](C)C(=O)N[C@@H](Cc1c[nH]c2ccccc12)C(=O)N[C@@H](CC(C)C)C(=O)N[C@H](C(=O)N[C@@H](CCCNC(=N)N)C(=O)NCC(=O)N[C@@H](CCCNC(=N)N)C(=O)N[C@@H](CCCCNC(=O)COCCOCCNC(=O)COCCOCCNC(=O)CC[C@H](NC(=O)CCCCCCCCCCCCCCCCC(=O)O)C(=O)O)C(=O)NCC(=O)NCC(=O)N[C@@H](CO)C(=O)N[C@@H](CCCCNc1c(NCCCCCN(O)C(=O)CCC(=O)NCCCCCN(O)C(=O)CCC(=O)NCCCCCN(O)C(C)=O)c(=O)c1=O)C(=O)O)C(C)C is reported as 1.31 µM·h (rat, plasma; subcutaneous, 20 nmol/kg).
With CC(C)CNC(=O)N[C@H]1[C@H]([C@H](O)[C@H](O)CO)OC(C(=O)O)=C[C@@H]1O the pIC50 was 4.30 (Sialidase-4; enzyme activity, inhibitor).
For CCn1cc(C2CC2)c2c(Cc3cnc(C(F)(F)F)c(OC)c3)n(C)nc2c1=O, the pIC50 was 7.20 (PFF0160c; enzyme activity, inhibitor).
With CCCCCc1cn([C@H]2[C@H]([C@H](O)[C@H](O)CO)OC(C(=O)O)=C[C@@H]2O)nn1 the pIC50 was under 3.30 (Sialidase-4; enzyme activity, inhibitor).
CC(C)C[C@H](NC(=O)[C@H]1O[C@@H]1C(=O)O)C(=O)NCCCCN=C(N)N has a pIC50 of 10.22 (Papain (Carica papaya, UniProt P00784); enzyme activity, inhibitor).
CC(C)C[C@H](NC(=O)[C@@H](N)Cc1c[nH]cn1)C(=O)N[C@@H](Cc1ccccc1)C(=O)N1CCC[C@H]1C(=O)N[C@@H](CCCNC(=N)N)C(=O)N[C@H](C(=O)N[C@@H](Cc1c[nH]cn1)C(=O)N[C@@H](Cc1ccc(O)cc1)C(=O)N[C@@H](Cc1ccccc1)C(=O)O)[C@@H](C)O gave a pIC50 of 4.32 (HLA class I histocompatibility antigen, B alpha chain; cell-free assay).
For O=c1c(O)c(-c2ccc(O[C@@H]3O[C@H](CO)[C@@H](O)[C@H](O)[C@H]3O)c(O)c2)oc2cc(O)cc(O)c12, the pIC50 was 8.10 and 8.35 (BCHE; enzyme activity, inhibitor).
With CCn1cc(C2CC2)c2c(Cc3cnc(C(F)(F)F)c(C)c3)n(C)nc2c1=O the pIC50 was 7.40 (PFF0160c; enzyme activity, inhibitor, absorbance).
CC(C)(C)c1cn([C@H]2[C@H]([C@H](O)[C@H](O)CO)OC(C(=O)O)=C[C@@H]2O)nn1 gave a pIC50 of 3.72 (Sialidase-3; enzyme activity, inhibitor).
The inhibition of N.N.[Cl][Pt][Cl] is reported as 100% (MOLT-4; cell growth or viability, ATP luminescence; 10 µM, 72 h).
For Cn1c(=O)ccc2ccc(F)c(CCNC[C@@H]3CN(c4cnc5c(n4)NC(=O)CO5)C(=O)O3)c21, the pIC50 was 7.89 (gyrA (Escherichia coli K-12, UniProt P0AES4); enzyme activity, inhibitor).
c1nc2nc3c(c(Nc4ccc5c(c4)CCC5)n2n1)CCC3 has a pIC50 of under 5.00 (PFF0160c E182D; enzyme activity, inhibitor, absorbance).
With COc1ncccc1-c1cnn2ccc(N3CCN(C(=O)OC(C)C)CC3)nc12 the remaining binding was 92% (RIOK2 (Homo sapiens, UniProt Q9BVS4); binding, competition with immobilised ligand; 1 µM).
With CCn1cc(Cl)c2c(Cc3ccc(N4CCCCC4)nc3)n(C)nc2c1=O the pIC50 was 7.80 (PFF0160c; enzyme activity, inhibitor).
COc1cc(CCC(=O)N2CCC(Cc3ccccc3)CC2)ccc1OC(=O)N1CCOCC1 has a pIC50 of 5.34 (BCHE; enzyme activity, inhibitor, Ellman).
CCOC(=O)c1cn(CC)c2cc(O[C@H]3CCN(C(=O)OC(C)(C)C)C3)ccc2c1=O has a pIC50 of 5.59 (PFF0160c; enzyme activity, inhibitor, absorbance).
The pIC50 of CCn1cc(C)c2c([C@@H](O)c3ccc(C(F)(F)F)nc3)n(C)nc2c1=O is reported as 6.60 (PFF0160c; enzyme activity, inhibitor).
With CC(=O)N(C)[C@H]1[C@H]([C@H](O)[C@H](O)CO)OC(C(=O)O)=C[C@@H]1O the pIC50 was under 3.30 (Sialidase-3; enzyme activity, inhibitor).
For CCN(C)C(=O)Oc1ccc(/C=C/C(=O)NC2CCN(Cc3ccccc3)CC2)cc1OC, the pIC50 was 5.52 (BCHE; enzyme activity, inhibitor, Ellman).
c1csc(-c2nnc3sc(Cc4ccc5c(c4)CCCC5)nn23)c1 gave a pIC50 of 6.24 (PFF0160c; enzyme activity, inhibitor, absorbance).

Repeated from above:
c1csc(-c2nnc3sc(Cc4ccc5c(c4)CCCC5)nn23)c1 gave a pIC50 of 6.24 (PFF0160c; enzyme activity, inhibitor, absorbance).
CC[C@H](C)[C@H](NC(C)=O)C(=O)N[C@@H](CCC(=O)O)C(=O)N[C@H](C(=O)N[C@H](C=O)CC(=O)O)[C@@H](C)O gave a pIC50 of 8.79 (Caspase-8 (CASP8, Homo sapiens, UniProt Q14790); enzyme activity, inhibitor).
For CCn1cc(C2CC2)c2c(Cc3cnc(C(F)(F)F)c(OC)c3)n(C)nc2c1=O, the pIC50 was 7.20 (PFF0160c; enzyme activity, inhibitor).
For COC(=O)c1cc(-c2cccc(NC(=S)Nc3ccc(F)c(Cl)c3)c2)on1, the MIC was over 64 µg/mL (Pseudomonas aeruginosa; microbial growth, broth dilution; ATCC27853).
The pIC50 of CCn1cc(C)c2c([C@@H](O)c3ccc(C(F)(F)F)nc3)n(C)nc2c1=O is reported as 6.60 (PFF0160c; enzyme activity, inhibitor).
